{"data": "Values quoted from earlier work as cited in several papers", "note": "Protocols differ between the studies behind these lines.", "UniProt Q9C098, sequence (whole entry, looked up)": "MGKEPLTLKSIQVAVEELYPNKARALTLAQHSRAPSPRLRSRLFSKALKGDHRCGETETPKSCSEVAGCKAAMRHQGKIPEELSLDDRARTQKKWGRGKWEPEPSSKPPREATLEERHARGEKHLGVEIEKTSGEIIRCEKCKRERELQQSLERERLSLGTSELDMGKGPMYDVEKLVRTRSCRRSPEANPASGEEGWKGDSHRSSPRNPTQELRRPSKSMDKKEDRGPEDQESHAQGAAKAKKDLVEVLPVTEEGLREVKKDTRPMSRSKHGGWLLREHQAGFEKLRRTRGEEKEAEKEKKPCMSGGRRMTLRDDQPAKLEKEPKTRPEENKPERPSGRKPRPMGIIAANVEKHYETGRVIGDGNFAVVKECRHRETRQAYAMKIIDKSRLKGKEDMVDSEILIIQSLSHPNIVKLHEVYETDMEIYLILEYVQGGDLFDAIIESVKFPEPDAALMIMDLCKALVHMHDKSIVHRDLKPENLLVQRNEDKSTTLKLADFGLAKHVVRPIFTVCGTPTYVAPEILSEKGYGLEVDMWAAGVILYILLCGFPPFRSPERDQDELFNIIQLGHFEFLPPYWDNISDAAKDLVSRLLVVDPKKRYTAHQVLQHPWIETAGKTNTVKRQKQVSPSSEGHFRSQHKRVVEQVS"}
{"SMILES": "CCCC(CCC)C(=O)O", "tested on": "HDAC", "assay": "enzyme activity, inhibitor", "conditions": "day 10, unbound medium concentration", "endpoint": "EC10", "result": "27 µM"}
{"SMILES": "CCNS(=O)(=O)c1ccc(OC)cc1C1(O)CCN(Cc2cccc(Oc3ccccc3OC)c2)CC1", "tested on": "human CCR8 Y113A mutant (TM3)", "assay": "IP accumulation, agonist", "endpoint": "EC50", "result": "> 10000 nM"}
{"SMILES": "CNS(=O)(=O)Nc1nccc(Cc2c(C)c3ccc(Oc4ncccn4)cc3oc2=O)c1F", "tested on": "BRAF", "assay": "kinase activity, inhibitor", "endpoint": "IC50", "result": "19 nM"}
{"SMILES": "Cc1cc(NC(=O)c2cccc(NC(=O)/C=C/CN(C)C)c2)ccc1Nc1nccc(-c2cccnc2)n1", "tested on": "p38", "conditions": "1 µM", "scale": "baseline: control", "endpoint": "remaining activity", "result": "20%"}
{"SMILES": "C=CCCC(=O)O", "tested on": "histone deacetylase", "assay": "enzyme activity, inhibitor", "system": "mouse embryonic stem cells", "conditions": "unbound medium concentration", "endpoint": "EC10", "result": "85 µM"}
{"SMILES": "CNC(=O)c1c(C)oc2cc(Oc3ncnc4cc(OC)c(OC)cc34)ccc12", "tested on": "VEGFR-2", "assay": "sustained VEGFR-2 phosphorylation inhibition", "system": "human, translated from mouse", "conditions": "oral, 2.5 mg/kg single dose in mouse", "endpoint": "target plasma concentration", "result": "> 176 ng/mL"}
{"SMILES": "Cc1[nH]c(/C=C2\\C(=O)Nc3ccc(C(=O)N[C@H](C)c4ccc(F)cc4)cc32)c(C)c1NC(=O)CCl", "tested on": "GRK5", "scale": "baseline: GRK2 IC50 over GRK5 IC50", "endpoint": "selectivity ratio", "result": "1400 fold"}
{"SMILES": "CCCCCC(CCC)C(=O)O (stereo not drawn)", "tested on": "histone deacetylase", "assay": "enzyme activity, inhibitor", "system": "mouse embryonic stem cells", "conditions": "unbound medium concentration", "endpoint": "EC10", "result": "5 µM"}
{"SMILES": "CNC(C)C1CCC(N)C(OC2C(N)CC(N)C(OC3OCC(C)(O)C(NC)C3O)C2O)O1 (stereo not drawn)", "tested on": "Escherichia coli", "system": "clinical isolate RKI 6 A-6", "endpoint": "MIC", "result": "1 mg/L"}
{"SMILES": "CC(C)n1cnc2c(Nc3cccc(Cl)c3)nc(NCCO)nc21", "tested on": "CSNK1E", "assay": "kinase activity, inhibitor", "conditions": "0.5 µM", "endpoint": "inhibition", "result": "65%"}
{"SMILES": "O=C(O)[C@H]1O[C@H](OP(=O)(O)OP(=O)(O)OC[C@H]2O[C@@H](n3ccc(=O)[nH]c3=O)[C@H](O)[C@@H]2O)[C@H](O)[C@@H](O)[C@@H]1O", "tested on": "P2Y14 receptor", "assay": "agonist", "endpoint": "EC50", "result": "~60 nM"}
{"SMILES": "C[S+]([O-])c1ccc(-c2nc(-c3ccc(F)cc3)c(-c3ccncc3)[nH]2)cc1 (stereo not drawn)", "tested on": "CSNK1E", "assay": "kinase activity, inhibitor", "conditions": "0.5 µM", "endpoint": "inhibition", "result": "60%"}
{"SMILES": "Cc1cn([C@@H]2O[C@H](CO)[C@@H](O)[C@H]2O)c(=O)nc1N", "tested on": "cytidine deaminase (human)", "assay": "substrate", "conditions": "concentration not given, 37 °C", "endpoint": "Vmax", "result": "35 U/mg"}
{"SMILES": "COc1cccc(-c2cc(=O)c3ccccc3o2)c1N", "tested on": "CSNK1D", "assay": "kinase activity, inhibitor", "conditions": "0.5 µM", "endpoint": "inhibition", "result": "1%"}
{"SMILES": "O=C(Nc1nc2ccccc2[nH]1)c1ccccc1", "tested on": "Rab-9A", "conditions": "PubChem AID 485297", "endpoint": "activity", "result": "1.6 µM"}
{"SMILES": "O=C1NC(=O)c2c1c1c3ccccc3[nH]c1n1cncc21", "tested on": "CSNK1E", "assay": "kinase activity, inhibitor", "conditions": "0.5 µM", "endpoint": "inhibition", "result": "81%"}
{"SMILES": "Nc1nc(=O)n([C@H]2C[C@H](O)[C@@H](CO)O2)cc1I", "tested on": "cytidine deaminase (human)", "assay": "substrate", "conditions": "concentration not given, 37 °C", "endpoint": "Vmax", "result": "91.1 U/mg"}
{"SMILES": "Nc1cc(C(F)(F)F)c(-c2nc(N3CCOCC3)nc(N3CCOCC3)n2)cn1", "tested on": "Serine/threonine-protein kinase DCLK3 (DCLK3, Homo sapiens, UniProt Q9C098)", "assay": "enzyme activity", "conditions": "10 µM", "scale": "baseline: untreated", "endpoint": "remaining activity", "result": "85%"}
{"SMILES": "C[C@]12CC[C@@H]3c4ccc(O)cc4CC[C@H]3[C@@H]1CC[C@@H]2O (single isomer, unassigned)", "tested on": "estrogen receptor alpha", "assay": "receptor activity, agonist", "conditions": "ToxCast", "endpoint": "AC50", "result": "0.077 nM"}
{"SMILES": "O=CO", "tested on": "anion exchanger, human", "assay": "substrate", "system": "neutrophils", "endpoint": "Km", "result": "13 mM"}
{"SMILES": "CC(C)[C@H](CO)Nc1nc(Nc2cc(N)cc(Cl)c2)c2ncn(C(C)C)c2n1", "tested on": "CSNK1D", "assay": "kinase activity, inhibitor", "conditions": "0.5 µM", "endpoint": "inhibition", "result": "34%"}
{"SMILES": "Cc1cccc(-c2[nH]c(CNc3ccccc3F)nc2-c2ccc3ncnn3c2)n1", "tested on": "OAT3", "assay": "transport activity, inhibitor", "conditions": "up to 100 µM", "endpoint": "inhibition", "result": "no inhibition"}
{"SMILES": "Cc1onc(-c2ccccc2)c1-c1ccc(S(N)(=O)=O)cc1", "tested on": "NR4A1 (Nur77)", "assay": "cellular", "conditions": "concentration not given", "endpoint": "activity", "result": "inactive"}
{"SMILES": "CC(C)(O/N=C(\\C(=O)N[C@@H]1C(=O)N2C(C(=O)[O-])=C(C[N+]3(CCNC(=O)c4ccc(O)c(O)c4Cl)CCCC3)CS[C@H]12)c1csc(N)n1)C(=O)O", "tested on": "KPC-31", "assay": "hydrolysis by enzyme, substrate", "endpoint": "kcat", "result": "0.008 s⁻¹"}
{"SMILES": "CC1(C)S[C@@H]2[C@H](NC(=O)[C@H](N)c3ccccc3)C(=O)N2[C@H]1C(=O)O", "tested on": "Enterobacter cloacae", "system": "clinical isolate RKI-No_546/13", "endpoint": "MIC", "result": "> 16 mg/L"}
{"SMILES": "CO[C@H]1C[C@@H]2CC[C@@H](C)[C@@](O)(O2)C(=O)C(=O)N2CCCC[C@H]2C(=O)O[C@H]([C@H](C)C[C@@H]2CC[C@@H](O)[C@H](OC)C2)CC(=O)[C@H](C)/C=C(\\C)[C@@H](O)[C@@H](OC)C(=O)[C@H](C)C[C@H](C)/C=C/C=C/C=C/1C", "tested on": "FKBP12 and mTOR FRB domain", "assay": "ternary complex binding", "endpoint": "cooperativity factor alpha", "result": 2170}
{"SMILES": "CCC(CC)C(=O)O", "tested on": "HDAC", "assay": "enzyme activity, inhibitor", "conditions": "day 10, unbound medium concentration", "endpoint": "EC10", "result": "2060 µM"}
{"SMILES": "c1cc(-c2cnn3cc(-c4ccc(OCCN5CCCCC5)cc4)cnc23)ccn1", "tested on": "CSNK1G1", "assay": "kinase activity, inhibitor", "conditions": "0.5 µM", "endpoint": "inhibition", "result": "11%"}
{"SMILES": "COc1ccccc1Oc1cccc(CN2CCC3(CC2)C(=O)NCN3CCc2ccccc2)c1", "tested on": "human CCR8 S110H mutant (TM3)", "assay": "IP accumulation, agonist", "endpoint": "EC50", "result": "> 10000 nM"}
{"SMILES": "CCCCC(CC)C(=O)O (stereo not drawn)", "tested on": "HDAC", "assay": "enzyme activity, inhibitor", "conditions": "day 4, unbound medium concentration", "endpoint": "EC10", "result": "252 µM"}
{"SMILES": "C[C@@H](c1ccc(-c2ccn(C)c(=O)c2)cc1)N1CC[C@](CC(C)(C)O)(c2ccccc2)OC1=O", "tested on": "11β-HSD1", "conditions": "concentration not given, 24 h after dose, day 14, continuous daily treatment", "endpoint": "inhibition", "result": "inhibited"}
{"SMILES": "CC(O)C(C)n1ncn(-c2ccc(N3CCN(c4ccc(OCC5COC(Cn6cncn6)(c6ccc(Cl)cc6Cl)O5)cc4)CC3)cc2)c1=O (stereo not drawn)", "tested on": "CYP3A4", "endpoint": "kcat", "result": "0.000333 s⁻¹"}
{"SMILES": "CCCCC(C)C(=O)O (stereo not drawn)", "tested on": "HDAC", "assay": "enzyme activity, inhibitor", "conditions": "day 10, unbound medium concentration", "endpoint": "EC10", "result": "2300 µM"}
{"SMILES": "CC(C)Oc1ccc(-c2c[nH]cc2CN(C)CCN)cc1", "tested on": "PRMT6", "assay": "enzyme activity, inhibitor", "scale": "baseline: PRMT1 IC50 over PRMT6 IC50", "endpoint": "selectivity ratio", "result": "6 fold"}
{"SMILES": "COc1ccccc1Oc1cccc(CN2CCC(O)(c3ccccc3C(=O)O)CC2)c1", "tested on": "human CCR8 W194A mutant (TM5)", "assay": "IP accumulation, agonist", "endpoint": "EC50", "result": "20 nM"}
{"SMILES": "Nc1nc(Nc2ccc(S(N)(=O)=O)cc2)n(C(=S)Nc2c(F)cccc2F)n1", "tested on": "CSNK1D", "assay": "kinase activity, inhibitor", "conditions": "0.5 µM", "endpoint": "inhibition", "result": "16%"}
{"SMILES": "COc1ccccc1Oc1cccc(CN2CCC(NC(=O)C3CC(=O)Nc4ccccc43)CC2)c1 (stereo not drawn)", "tested on": "human CCR8 F254A mutant (TM6)", "assay": "IP accumulation, agonist", "endpoint": "EC50", "result": "64 nM"}
{"SMILES": "CC(C)=CCC[C@@H](C)[C@H]1CC[C@@]2(C)C3=C(CC[C@]12C)[C@@]1(C)CC[C@H](O)C(C)(C)[C@@H]1CC3", "tested on": "CYP51 (zebrafish)", "assay": "substrate", "endpoint": "turnover rate", "result": "3.2 nmol/min/nmol P450"}
{"SMILES": "Oc1c2ccccc2c2c3c(cccc13)N=N2", "tested on": "CSNK1E", "assay": "kinase activity, inhibitor", "conditions": "0.5 µM", "endpoint": "inhibition", "result": "75%"}
{"SMILES": "CCNC(=O)C1CC(C)CCC1C(C)C (stereo not drawn)", "tested on": "TRPM8 human", "endpoint": "EC50", "result": "3700 nM"}
{"SMILES": "CCCC(C)C(=O)O (stereo not drawn)", "tested on": "histone deacetylase", "assay": "enzyme activity, inhibitor", "system": "mouse embryonic stem cells", "conditions": "unbound medium concentration", "endpoint": "EC10", "result": "1030 µM"}
{"SMILES": "COc1ccccc1Oc1cccc(CN2CCC(NC(=O)C(CCN3CCCC3)c3ccccc3)CC2)c1 (stereo not drawn)", "tested on": "human CCR8 L168D mutant (TM4)", "assay": "IP accumulation, agonist", "endpoint": "EC50", "result": "28 nM"}
